Assay results pooled from the literature.
A part holds a random share of what one study measured.
Chain of UniProt Q96PN8 (whole entry, looked up): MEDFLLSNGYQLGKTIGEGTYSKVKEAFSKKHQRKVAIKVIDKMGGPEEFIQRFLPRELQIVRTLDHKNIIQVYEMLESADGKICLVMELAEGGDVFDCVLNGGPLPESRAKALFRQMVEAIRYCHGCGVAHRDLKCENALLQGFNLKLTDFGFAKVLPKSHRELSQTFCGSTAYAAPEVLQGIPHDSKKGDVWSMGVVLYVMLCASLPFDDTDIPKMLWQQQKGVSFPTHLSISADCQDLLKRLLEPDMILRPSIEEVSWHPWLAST
Chain of UniProt P51956 (whole entry, looked up): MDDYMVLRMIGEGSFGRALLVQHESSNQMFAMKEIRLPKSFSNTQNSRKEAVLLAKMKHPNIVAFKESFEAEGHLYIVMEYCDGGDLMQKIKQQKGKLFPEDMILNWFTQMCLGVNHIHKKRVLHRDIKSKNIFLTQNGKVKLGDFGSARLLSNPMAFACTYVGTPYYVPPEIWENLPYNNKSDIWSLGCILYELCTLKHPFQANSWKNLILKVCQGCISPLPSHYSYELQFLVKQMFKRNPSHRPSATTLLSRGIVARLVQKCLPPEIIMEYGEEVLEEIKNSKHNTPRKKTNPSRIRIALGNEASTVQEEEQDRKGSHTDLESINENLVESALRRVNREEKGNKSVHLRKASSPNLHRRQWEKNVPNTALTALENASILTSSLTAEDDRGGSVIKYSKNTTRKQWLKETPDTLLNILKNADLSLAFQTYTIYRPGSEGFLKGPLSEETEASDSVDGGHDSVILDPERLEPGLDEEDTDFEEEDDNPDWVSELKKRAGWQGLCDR
Chain of UniProt P42336 (whole entry, unmodified, looked up): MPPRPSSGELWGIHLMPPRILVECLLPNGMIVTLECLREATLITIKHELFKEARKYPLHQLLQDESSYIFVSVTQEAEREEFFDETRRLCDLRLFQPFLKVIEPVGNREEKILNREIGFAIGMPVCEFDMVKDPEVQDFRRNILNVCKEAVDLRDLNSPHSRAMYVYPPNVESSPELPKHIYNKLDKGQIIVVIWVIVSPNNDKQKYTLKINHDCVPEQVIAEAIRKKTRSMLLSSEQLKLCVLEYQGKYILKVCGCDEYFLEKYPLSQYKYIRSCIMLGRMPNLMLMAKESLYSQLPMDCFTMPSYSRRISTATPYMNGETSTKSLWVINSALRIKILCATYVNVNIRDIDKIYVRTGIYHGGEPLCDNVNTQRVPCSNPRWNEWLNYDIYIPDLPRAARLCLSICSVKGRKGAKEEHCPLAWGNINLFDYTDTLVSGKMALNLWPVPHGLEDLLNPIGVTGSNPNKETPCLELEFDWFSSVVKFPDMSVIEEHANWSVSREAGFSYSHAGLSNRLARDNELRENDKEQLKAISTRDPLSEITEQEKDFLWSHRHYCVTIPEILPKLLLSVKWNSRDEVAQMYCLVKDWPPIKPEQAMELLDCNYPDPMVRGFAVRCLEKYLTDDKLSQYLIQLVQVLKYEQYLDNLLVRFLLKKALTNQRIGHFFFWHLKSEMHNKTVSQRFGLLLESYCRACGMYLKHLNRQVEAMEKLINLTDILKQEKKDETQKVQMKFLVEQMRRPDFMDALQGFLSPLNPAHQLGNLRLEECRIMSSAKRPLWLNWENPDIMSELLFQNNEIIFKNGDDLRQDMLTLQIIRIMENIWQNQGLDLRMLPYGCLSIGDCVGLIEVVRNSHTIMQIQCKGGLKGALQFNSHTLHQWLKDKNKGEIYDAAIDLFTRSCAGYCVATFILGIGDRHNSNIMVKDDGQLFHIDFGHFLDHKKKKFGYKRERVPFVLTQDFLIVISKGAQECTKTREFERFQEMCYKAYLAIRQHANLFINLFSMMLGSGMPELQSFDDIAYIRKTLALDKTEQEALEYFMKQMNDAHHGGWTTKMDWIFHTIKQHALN
Chain of UniProt P22607 (whole entry, unmodified, looked up): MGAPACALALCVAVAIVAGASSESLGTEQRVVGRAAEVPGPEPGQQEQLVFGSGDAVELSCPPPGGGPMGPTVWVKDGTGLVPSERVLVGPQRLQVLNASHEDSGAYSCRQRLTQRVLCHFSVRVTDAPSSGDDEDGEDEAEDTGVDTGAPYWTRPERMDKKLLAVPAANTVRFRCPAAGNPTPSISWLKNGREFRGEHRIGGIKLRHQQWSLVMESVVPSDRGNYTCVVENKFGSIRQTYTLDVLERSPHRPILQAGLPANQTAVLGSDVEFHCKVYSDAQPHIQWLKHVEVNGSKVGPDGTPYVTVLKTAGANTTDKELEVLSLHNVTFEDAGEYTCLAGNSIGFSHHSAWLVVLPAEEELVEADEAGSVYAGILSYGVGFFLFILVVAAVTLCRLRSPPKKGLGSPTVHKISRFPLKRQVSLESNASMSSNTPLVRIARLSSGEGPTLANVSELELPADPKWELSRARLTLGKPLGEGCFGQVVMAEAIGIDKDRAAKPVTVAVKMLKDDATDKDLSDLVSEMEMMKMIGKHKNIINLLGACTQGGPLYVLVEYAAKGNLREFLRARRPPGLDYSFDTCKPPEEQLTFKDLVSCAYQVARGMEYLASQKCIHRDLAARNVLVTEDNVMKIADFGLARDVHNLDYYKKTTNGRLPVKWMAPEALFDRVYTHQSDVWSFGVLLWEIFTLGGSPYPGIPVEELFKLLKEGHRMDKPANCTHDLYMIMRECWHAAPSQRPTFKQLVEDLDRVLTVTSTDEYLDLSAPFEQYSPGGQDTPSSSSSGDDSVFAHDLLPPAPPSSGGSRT

Series 1
Target: Sal-like protein 4, full length isoform A (SALL4, Homo sapiens, UniProt Q9UJQ4, residues 1-1053)
Chain of UniProt Q9UJQ4 (whole entry, looked up): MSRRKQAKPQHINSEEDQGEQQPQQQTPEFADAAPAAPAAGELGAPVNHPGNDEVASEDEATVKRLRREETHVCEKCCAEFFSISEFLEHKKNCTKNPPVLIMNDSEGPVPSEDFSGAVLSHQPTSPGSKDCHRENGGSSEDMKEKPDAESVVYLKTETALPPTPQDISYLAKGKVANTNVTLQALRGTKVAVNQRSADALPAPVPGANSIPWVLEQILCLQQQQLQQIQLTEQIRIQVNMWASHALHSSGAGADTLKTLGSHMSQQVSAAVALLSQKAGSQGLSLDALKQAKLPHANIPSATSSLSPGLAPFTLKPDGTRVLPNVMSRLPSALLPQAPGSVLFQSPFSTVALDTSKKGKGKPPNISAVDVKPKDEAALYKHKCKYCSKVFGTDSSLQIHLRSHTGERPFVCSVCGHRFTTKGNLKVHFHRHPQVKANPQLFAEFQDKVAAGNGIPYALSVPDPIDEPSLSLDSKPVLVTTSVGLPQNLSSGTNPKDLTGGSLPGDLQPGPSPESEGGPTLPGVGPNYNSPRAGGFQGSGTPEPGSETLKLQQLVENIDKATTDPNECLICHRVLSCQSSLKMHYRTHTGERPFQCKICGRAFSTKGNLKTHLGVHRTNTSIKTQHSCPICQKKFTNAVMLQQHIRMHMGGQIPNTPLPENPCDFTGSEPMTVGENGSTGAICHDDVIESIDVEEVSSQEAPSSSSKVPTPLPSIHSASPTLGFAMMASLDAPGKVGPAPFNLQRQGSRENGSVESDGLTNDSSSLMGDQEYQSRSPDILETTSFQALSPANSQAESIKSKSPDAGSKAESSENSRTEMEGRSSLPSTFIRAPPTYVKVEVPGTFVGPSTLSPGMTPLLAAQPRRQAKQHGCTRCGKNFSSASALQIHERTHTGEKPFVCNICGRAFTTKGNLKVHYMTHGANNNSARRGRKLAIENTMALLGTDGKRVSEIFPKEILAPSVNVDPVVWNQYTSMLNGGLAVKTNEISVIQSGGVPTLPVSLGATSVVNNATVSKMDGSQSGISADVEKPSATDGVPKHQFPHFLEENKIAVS
Technique: universal PBM
Form: double-stranded DNA, one strand shown
Matrix: in vitro
Concentration: 600 nM
Notes: 8-mer, flanks averaged, mean of replicates
Direction: higher = stronger binding
Sequence	E-score
GTATTCAA	0.277
AGATCCAC	0.0667
CGTCATTC	0.103
AGCGACTA	0.0133
AAAGCAAA	0.148
AGGATATG	0.159
AGCAGACC	-0.182
CCCGTAAC	-0.0951

Series 2
Compound: O=C(N[C@H]1CCCCC/C=C\C2C[C@@]2(C(=O)O)NC(=O)[C@@H]2C[C@@H](Oc3ccncc3)CN2C1=O)OC1CCCC1 (stereo partly drawn)
Technique: competition with immobilised ligand
Concentration: 1 µM
target	test	remaining binding
TSSK3 (Homo sapiens, UniProt Q96PN8)	binding	100%
FLT3 (Homo sapiens, UniProt P36888, ITD)	binding	100%
KIT (Homo sapiens, UniProt P10721, V559D)	binding	89%
TAOK2 (Homo sapiens, UniProt Q9UL54)	binding	100%
FGFR3 (Homo sapiens, UniProt P22607, G697C)	cell-free assay	100%
PIK3CA (Homo sapiens, UniProt P42336, M1043I)	binding	84%
PIK3C2G (Homo sapiens, UniProt O75747)	binding	71%
SGK3 (Homo sapiens, UniProt Q96BR1)	binding	100%
NEK3 (Homo sapiens, UniProt P51956)	binding	100%
WNK2 (Homo sapiens, UniProt Q9Y3S1)	binding	100%
RIPK2 (Homo sapiens, UniProt O43353)	binding	100%

Series 3
Species: human
Matrix: microsomes or S9
Concentration: 2 µM
Time: 0.5 h
SMILES	remaining compound [%]
CC(C)(C)c1ccccc1NC(=O)c1ccc(NC(=O)Nc2ccccc2)s1	66.5
CCN1C(=O)C(C)(C)c2cc(S(=O)(=O)Nc3cnn(CC)c3)ccc21	54.8
O[C@@H]1C[C@@H](c2nnc3n2CCN(Cc2cccc4[nH]ccc24)C3)N(Cc2ccccc2)C1	21.1

Series 4
Partner: H2BC15 (Homo sapiens, UniProt Q99877)
Technique: cross-linking MS
Notes: hits only
Substance	interaction screen
H2AZ1 (Homo sapiens, UniProt P0C0S5)	cross-linked
Histone H2B type 1-C/E/F/G/I (Homo sapiens, UniProt P62807)	cross-linked
H2AC6 (Homo sapiens, UniProt Q93077)	cross-linked
H2AC20 (Homo sapiens, UniProt Q16777)	cross-linked

Single results of other studies
Substance	target	test	test system	conditions	scale	endpoint	value
PhoQ, residues 284 288 289 292 302 303 HSYLQF	PhoP, residues 12 14 15 18 19 SQCLL (Escherichia coli, UniProt P23836)	Sort-seq, refers to: YFP reporter	E. coli	PhoQ-PhoP variant library, together with: 10 µM Mg2+	baseline: high Mg2+ state, higher = stronger signaling	fold induction	30.5

Repeated from above (series 2):
target	test	remaining binding
RIPK2 (Homo sapiens, UniProt O43353)	binding	100%
PIK3CA (Homo sapiens, UniProt P42336, M1043I)	binding	84%
FGFR3 (Homo sapiens, UniProt P22607, G697C)	cell-free assay	100%
FLT3 (Homo sapiens, UniProt P36888, ITD)	binding	100%
